Experimental data from different studies.
Compare with care: the assays were run in different laboratories.

Structure (SMILES)	organism	assay	test system	conditions	MIC
CC(=O)N1CCN(c2ccc(OCC3COC(Cn4ccnc4)(c4ccc(Cl)cc4Cl)O3)cc2)CC1 (stereo not shown)	Candida albicans	broth microdilution	14936, RPMI 1640-MOPS	48 h, 30 °C	> 64 µM
CCCCCCCCCCCCCCCC(=O)C(F)(F)P(=O)(O)O	Streptococcus pneumoniae	–	–	–	> 200 µg/mL
CC[C@H](C)[C@H](NC(=O)[C@H](CCCCN)NC(=O)[C@@H](NC(=O)[C@H](Cc1ccc(O)cc1)NC(=O)[C@H](CCCCN)NC(=O)[C@H](CCCCN)NC(=O)CNC(=O)[C@H](CCCCN)NC(=O)[C@@H](NC(=O)[C@H](C)NC(=O)[C@H](CC(C)C)NC(=O)[C@H](Cc1c[nH]c2ccccc12)NC(=O)CNC(=O)[C@@H](NC(=O)[C@H](Cc1ccccc1)NC(=O)[C@H](CCCCN)NC(=O)[C@H](CC(C)C)NC(=O)[C@H](Cc1ccccc1)NC(=O)[C@H](C)NC(=O)CNC(=O)[C@@H](N)CCSC)C(C)C)[C@@H](C)O)C(C)C)C(=O)N[C@@H](C)C(=O)N[C@@H](Cc1c[nH]c2ccccc12)C(=O)N[C@@H](CC(=O)O)C(=O)N[C@@H](Cc1c[nH]cn1)C(=O)N[C@@H](CCCCN)C(=O)NCC(=O)N[C@H](C(=O)N[C@H](C(=O)N[C@@H](CCSC)C(=O)N[C@@H](CCCCN)C(=O)N[C@@H](Cc1c[nH]c2ccccc12)C(=O)N[C@@H](CC(C)C)C(=O)N[C@@H](CC(N)=O)C(=O)N[C@@H](C)C(=O)NCC(=O)N[C@@H](CCC(N)=O)C(=O)N[C@H](C(=O)N[C@@H](Cc1ccccc1)C(=O)N[C@H](C(=O)N[C@@H](Cc1c[nH]c2ccccc12)C(=O)N[C@H](C(=O)N[C@@H](Cc1ccc(O)cc1)C(=O)N[C@@H](CCC(=O)O)C(=O)N[C@@H](CCC(N)=O)C(=O)N[C@H](C(=O)N[C@@H](CCCCN)C(=O)N[C@@H](CCCCN)C(=O)N[C@@H](CC(C)C)C(=O)N[C@@H](Cc1c[nH]c2ccccc12)C(=O)N[C@H](C(=O)O)[C@@H](C)O)[C@@H](C)CC)C(C)C)[C@@H](C)O)[C@@H](C)O)[C@@H](C)CC)[C@@H](C)O	Trueperella pyogenes	broth microdilution	–	37 °C	3.9 µg/mL
Cc1ccccc1C(=O)NN=Cc1ccc(O)c(Br)c1	Cryptococcus neoformans	–	–	compound alone, together with: amphotericin	1 µg/mL
CC(C)C1NC(=O)C(C(=O)NC(C(=O)NC2C(=O)N3C2SC(C)(C)C3C(=O)O)c2ccccc2)=C1O (stereo not shown)	Escherichia coli	broth microdilution	ATCC 35218, low-level TEM-1	together with: clavulanic acid 6 µg/mL	200 µg/mL
C[C@H](NC(=O)[C@H](CCCNC(=N)N)NC(=O)[C@H](Cc1c[nH]c2ccccc12)NC(=O)[C@H](CCCNC(=N)N)NC(=O)[C@H](Cc1c[nH]c2ccccc12)NC(=O)[C@H](Cc1c[nH]c2ccccc12)NC(=O)[C@H](Cc1c[nH]c2ccccc12)NC(=O)[C@H](CCCNC(=N)N)NC(=O)[C@H](Cc1c[nH]c2ccccc12)NC(=O)[C@H](CCCNC(=N)N)NC(=O)CN)C(N)=O	Candida albicans	broth microdilution	CGMCC 2.209, RPMI 1640-MOPS	48 h, 30 °C, together with: NH4Cl 6 µM	4 µM
CC1(C)SC2C(NC(=O)C(NC(=O)C3=C(O)C(Cc4ccc([N+](=O)[O-])cc4)NC3=O)c3ccccc3)C(=O)N2C1C(=O)O (stereo not shown)	Escherichia coli	broth microdilution	Keio mutant JW2142-1	–	50 µg/mL
N=C(N)NCCC[C@H](NC(=O)CN)C(=O)N[C@@H](Cc1c[nH]c2ccccc12)C(=O)N[C@@H](CCCNC(=N)N)C(=O)N[C@@H](Cc1c[nH]c2ccccc12)C(=O)N[C@@H](Cc1c[nH]c2ccccc12)C(=O)N[C@@H](Cc1c[nH]c2ccccc12)C(=O)N[C@@H](CCCNC(=N)N)C(=O)N[C@@H](Cc1c[nH]c2ccccc12)C(=O)N[C@@H](CCCNC(=N)N)C(=O)N[C@@H](Cc1ccccc1)C(N)=O	Candida albicans	broth microdilution	CGMCC 2.209, RPMI 1640-MOPS	48 h, 30 °C, together with: MgCl2 1 mM	32 µM
N=C(N)c1ccc(OCc2cc(Br)cc(COc3ccc(C(=N)N)cc3)c2)cc1	Escherichia coli	–	BW25113 mcr-1	compound alone	> 50 µg/mL
CC1(C)SC2C(NC(=O)C(NC(=O)C3=C(O)C4CCCN4C3=O)c3ccccc3)C(=O)N2C1C(=O)O (stereo not shown)	Escherichia coli	broth microdilution	ATCC 35218, low-level TEM-1	together with: clavulanic acid 6 µg/mL	200 µg/mL
CC(C)C[C@H](NC(=O)[C@H](CCCCN)NC(=O)[C@H](CO)NC(=O)[C@H](C)NC(=O)[C@H](C)NC(=O)CNC(=O)[C@H](CC(C)C)NC(=O)[C@H](CCCCN)NC(=O)[C@H](CC(C)C)NC(=O)[C@H](CC(C)C)NC(=O)[C@H](CC(C)C)NC(=O)CNC(=O)[C@H](CO)NC(=O)[C@H](Cc1c[nH]c2ccccc12)NC(=O)[C@@H](N)CCCCN)C(N)=O	Candida glabrata	broth microdilution	ATCC 2001	44 h, 37 °C	100 µM
CC1(C)SC2C(NC(=O)C(NC(=O)C3=C(O)C(Cc4ccc(O)cc4)NC3=O)c3ccccc3)C(=O)N2C1C(=O)O (stereo not shown)	Escherichia coli	broth microdilution	isolate IU, CTX-M-14, TEM-1	together with: clavulanic acid 6 µg/mL	> 200 µg/mL
CCCCCCCCCCCC(=O)NP(=O)(O)O	Streptococcus pneumoniae	–	–	–	100 µg/mL
N=C(N)NCCC[C@H](NC(=O)[C@H](Cc1c[nH]c2ccccc12)NC(=O)[C@H](CCCNC(=N)N)NC(=O)[C@H](Cc1c[nH]c2ccccc12)NC(=O)[C@H](Cc1c[nH]c2ccccc12)NC(=O)[C@H](Cc1c[nH]c2ccccc12)NC(=O)[C@H](CCCNC(=N)N)NC(=O)[C@H](Cc1c[nH]c2ccccc12)NC(=O)[C@@H](N)CCCNC(=N)N)C(N)=O	Candida albicans	broth microdilution	CGMCC 2.209, RPMI 1640-MOPS	48 h, 30 °C, together with: MgCl2 1 mM	8 µM
CCCCCCCCCCCCCCCC(=O)NP(=O)(O)O	Streptococcus pneumoniae	–	–	–	100 µg/mL
C[C@@H]1[C@H](O)[C@@H](C)/C=C/C=C/C=C/C=C/C=C/C=C/C=C/[C@H](O[C@@H]2O[C@H](C)[C@@H](O)[C@H](N)[C@@H]2O)C[C@@H]2O[C@](O)(C[C@@H](O)C[C@@H](O)[C@H](O)CC[C@@H](O)C[C@@H](O)CC(=O)O[C@H]1C)C[C@H](O)[C@H]2C(=O)O	Candida albicans	broth microdilution	56214, RPMI 1640-MOPS	48 h, 30 °C	0.5 µM
CC(C)(C)Oc1ccc(CC2NC(=O)C(C(=O)NC(C(=O)NC3C(=O)N4C3SC(C)(C)C4C(=O)O)c3ccccc3)=C2O)cc1 (stereo not shown)	Escherichia coli	broth microdilution	Keio mutant JW0146-2	18 h, ferric hydroxamate uptake gene	25 µg/mL
C=CCCCCCCCCC(=O)C(F)(F)P(=O)(O)O	Streptococcus pneumoniae	–	–	–	> 200 µg/mL
CC[C@H](C)[C@H](NC(=O)CN)C(=O)NCC(=O)N[C@@H](C)C(=O)N[C@H](C(=O)N[C@@H](CC(C)C)C(=O)N[C@@H](CCCCN)C(=O)N[C@H](C(=O)N[C@@H](CC(C)C)C(=O)N[C@H](C(=O)N[C@H](C(=O)NCC(=O)N[C@@H](CC(C)C)C(=O)N1CCC[C@H]1C(=O)N[C@@H](C)C(=O)N[C@@H](CC(C)C)C(=O)N[C@H](C(=O)N[C@@H](CO)C(=O)N[C@@H](Cc1c[nH]c2ccccc12)C(=O)N[C@H](C(=O)N[C@@H](CCCCN)C(=O)N[C@@H](CCCNC(=N)N)C(=O)N[C@@H](CCCCN)C(=O)N[C@@H](CCCNC(=N)N)C(=O)N[C@@H](CCC(N)=O)C(=O)N[C@@H](CCC(N)=O)C(N)=O)[C@@H](C)CC)[C@@H](C)CC)[C@@H](C)O)[C@@H](C)O)C(C)C)C(C)C	Candida albicans	broth microdilution	alveolar fluid isolate, RPMI 1640-MOPS	48 h, 30 °C	2 µM
N=C(N)c1ccc(OCCCCCOc2ccc(C(=N)N)cc2)cc1	Escherichia coli	–	BW25113 mcr-1	in combination, checkerboard, together with: rifampicin	50 µg/mL
c1ccc(CCOC2CCCc3c2[nH]c2ccccc32)cc1 (stereo not shown)	Staphylococcus simulans	broth microdilution	22	–	> 16 µg/mL
CC1(C)SC2C(NC(=O)C(NC(=O)C3=C(O)CNC3=O)c3ccccc3)C(=O)N2C1C(=O)O (stereo not shown)	Escherichia coli	broth microdilution	Keio mutant JW5195-1	18 h	25 µg/mL
CN[C@H](CC(C)C)C(=O)N[C@H]1C(=O)N[C@@H](CC(N)=O)C(=O)N[C@H]2C(=O)N[C@H]3C(=O)N[C@H](C(=O)N[C@H](C(=O)O)c4cc(O)cc(O)c4-c4cc3ccc4O)[C@H](O)c3ccc(c(Cl)c3)Oc3cc2cc(c3O[C@@H]2O[C@H](CO)[C@@H](O)[C@H](O)[C@H]2O[C@H]2C[C@](C)(N)[C@H](O)[C@H](C)O2)Oc2ccc(cc2Cl)[C@H]1O	Clostridioides difficile	agar dilution anaerobic	3588	48 h	2 µg/mL
CC(C)(C)OCC1NC(=O)C(C(=O)NC(C(=O)NC2C(=O)N3C2SC(C)(C)C3C(=O)O)c2ccccc2)=C1O (stereo not shown)	Escherichia coli	broth microdilution	isolate IU, CTX-M-14, TEM-1	no clavulanic acid	> 200 µg/mL
CC[C@H](C)[C@H](N)C(=O)N[C@@H](CCCNC(=N)N)C(=O)N[C@H](C(=O)N[C@@H](Cc1c[nH]c2ccccc12)C(=O)N[C@@H](Cc1c[nH]c2ccccc12)C(=O)N[C@@H](CCCCN)C(=O)N[C@H](C(=O)N[C@H](C(=O)N[C@@H](CCCNC(=N)N)C(=O)N[C@@H](CCCCN)C(=O)N[C@@H](Cc1c[nH]c2ccccc12)C(=O)N[C@@H](CCCCN)C(=O)N[C@@H](C)C(=O)N[C@H](C(=O)N[C@@H](Cc1c[nH]c2ccccc12)C(=O)N[C@@H](Cc1c[nH]cn1)C(N)=O)[C@@H](C)CC)C(C)C)[C@@H](C)CC)C(C)C	Salmonella typhimurium	broth dilution	SL1344	–	50 µM

Some of these lines once more:
Structure (SMILES)	organism	assay	test system	conditions	MIC
CC1(C)SC2C(NC(=O)C(NC(=O)C3=C(O)C4CCCN4C3=O)c3ccccc3)C(=O)N2C1C(=O)O (stereo not shown)	Escherichia coli	broth microdilution	ATCC 35218, low-level TEM-1	together with: clavulanic acid 6 µg/mL	200 µg/mL
CC1(C)SC2C(NC(=O)C(NC(=O)C3=C(O)C(Cc4ccc([N+](=O)[O-])cc4)NC3=O)c3ccccc3)C(=O)N2C1C(=O)O (stereo not shown)	Escherichia coli	broth microdilution	Keio mutant JW2142-1	–	50 µg/mL
